Measured values of several laboratories.
Protocols differ between the studies behind these lines. Values joined by “and” are separate records of one study, mostly repeats; a detail may differ. ± gives the spread as reported.

NCCc1ccccc1  z-scored log2 fold change (binding, equilibrium dialysis LC-MS; 5 µM, thermostabilized A2AR-BRIL construct; relative to: no-protein control, direction not given): 0.871
C[C@H](NC(=O)c1c(C(F)F)nn(C)c1Oc1cccc(C(F)(F)F)c1)c1ccc(C(=O)O)cc1  median progression-free survival (human, advanced tumours; 750 mg): 1.3 months
O=C1OC[C@@H](O)[C@H]1O  z-scored log2 fold change (binding, equilibrium dialysis LC-MS; 5 µM, thermostabilized A2AR-BRIL construct; relative to: no-protein control, direction not given): 1.15
CC[C@H](C)[C@@H]1NC(=O)[C@@H]2CCCN2C(=O)[C@H](CC(C)C)NC(=O)[C@H](CC(C)C)NC(=O)CNC(=O)[C@@H](NC(=O)[C@@H](NC(=O)[C@H](CC(=O)O)NC(=O)CNC(=O)[C@@H](NC(=O)[C@H](C)NC(=O)CNC(=O)[C@H](CCCCN)NC(=O)[C@H](CC(C)C)NC(=O)[C@H](CC(C)C)NC(=O)[C@H](CCCCN)NC(=O)CNC(=O)[C@@H](NC(=O)[C@@H](N)CC(C)C)C(C)C)C(C)C)C(C)C)CSSC[C@@H](C(=O)O)NC1=O  log2 fold change (RNA-seq, item: Cd74; mouse, traumatic brain injury model, frontal cortex and hippocampus; dose not given; relative to: TBI alone): -2.38
C[C@H]1O[C@@H](O[C@H]2CC[C@@]3(C)[C@@H](CC[C@]4(C)[C@@H]3C=C[C@]35OC[C@@]6(CCC(C)(C)C[C@H]63)[C@@H](O)C[C@]54C)[C@]2(C)CO)[C@H](O)[C@@H](O[C@@H]2O[C@H](CO)[C@@H](O)[C@H](O)[C@H]2O)[C@H]1O  protein level (Western blot, item: mTOR; mouse, AAV8-TBG-Null control vector, liver; dose not given, high dose, unit not given, added: ethanol; relative to: β-actin): 0.47 and 0.618 and 0.751
CN1CCN(S(=O)(=O)c2cc([N+](=O)[O-])ccc2N(CCOS(C)(=O)=O)CCOS(C)(=O)=O)CC1  EFS ratio (T/C) (NSG mice, sample CA PDX; intraperitoneal, 25 mg/kg weekly x3; relative to: treated over vehicle): 13.2
COc1cccc([C@H](O)C2CCN(CCc3ccc(F)cc3)CC2)c1OC  DOM-lever responding (antagonist, drug discrimination; rhesus monkey trained on DOM; 0.032 mg/kg, added: DOM 0.32 mg/kg): < 1%
CC(C)CCCCCCCCC[C@@H]1CC(=O)N[C@@H](CCC(=O)O)C(=O)N[C@@H](CC(C)C)C(=O)N[C@H](CC(C)C)C(=O)N[C@@H](C(C)C)C(=O)N[C@@H](CC(=O)O)C(=O)N[C@H](CC(C)C)C(=O)N[C@@H](CC(C)C)C(=O)O1  maximum fusion (calcein leakage; DOPC/DOPG/CHOL liposomes; concentration not given, added: 40 mM CaCl2): 86 ± 5%
CC(C)(O)c1cnc2ncc(-c3ccc(F)c(-c4c(F)cccc4C#N)c3)n2n1  minimum effective dose (food-maintained responding; rhesus monkey; intramuscular, acute dependence model, added: midazolam pretreatment 30 min; relative to: midazolam alone): 1 mg/kg
CC[C@H](C)C[C@H](C)CCCCCCCCC(=O)N[C@H]1C[C@@H](O)[C@@H](NCCN)NC(=O)[C@@H]2[C@@H](O)CCN2C(=O)[C@H]([C@H](O)CCN)NC(=O)[C@H]([C@H](O)[C@@H](O)c2ccc(O)cc2)NC(=O)[C@@H]2C[C@@H](O)CN2C(=O)[C@H]([C@@H](C)O)NC1=O  maximum fusion (calcein leakage; DOPC/DOPG/CHOL liposomes; concentration not given, added: 40 mM CaCl2): 1 ± 1%
Clc1cc2c(cc1Cl)Oc1cc(Cl)c(Cl)cc1O2  LTE4 level (female Sprague-Dawley rat, liver; dose not given; relative to: vehicle): no effect
CC(=O)c1c(C)c2cnc(Nc3ccc(C4CCN(CCS(C)(=O)=O)CC4)cn3)nc2n(C2CCCC2)c1=O  T/C (mouse Colo-205 xenograft; oral, 80 mg/kg twice daily, 14 days): -36%
C[C@]1(CO)Cc2ncn(-c3ccc(C#N)c(Cl)c3)c2C(=O)O1  urinary excretion (aldosterone synthesis, inhibitor, item: sodium; healthy Japanese adults, urine; 80 mg, 0-24 h after first dose, multiple rising dose): 116 mmol
[131I-].[Na+]  lymph nodal recurrence (paediatric patients, differentiated thyroid carcinoma, intermediate risk; dose not given, retrospective): 9.1%
CCCCC1(CCCC)CN(c2ccccc2)c2cc(SC)c(OCC(=O)N[C@@H](C(=O)NCC(=O)O)c3ccccc3)cc2S(=O)(=O)C1  serum HDL-C (item: HDL cholesterol; human, serum; 10 mg once daily, day 5): 48.8 mg/dL
[Cl][Ru-]([Cl])([Cl])[Cl].[Na+].c1ccc2[nH]ncc2c1.c1ccc2[nH]ncc2c1  maximum change in target lesions (CT, RECIST 1.1; human; 320 mg/m2; relative to: baseline): -30%
Cc1nc(Nc2ccc(CC(=O)O)cc2)nc(Nc2ccc(F)c(C(F)(F)F)c2)c1C  adipocyte diameter (C57BL/6J mouse, high-fat diet MASH model, white adipose tissue; intraperitoneal, 0.3 mg/kg daily, 60% fat diet for 12 weeks, dosed final four weeks; relative to: untreated): decreased
C=CC(=O)Nc1cc(Nc2ncc(Cl)c(Nc3ccccc3C(=O)C(=O)N(C)C)n2)c(OC)cc1N1CCN(C)CC1  patients with complete response (RECIST v1.1 best response; human EGFR T790M NSCLC; oral, 50 mg/day, per-protocol set): 0%
CN(C)C1(CNC(=O)c2ccc3c(c2)CCN3C(=O)c2ccccc2)CCOCC1  reduction of cold allodynia (acetone test; mice, chronic constriction injury; intraperitoneal, 100 mg/kg, 2 h): 62%
CCCc1nn(C)c2c(=O)[nH]c(-c3cc(S(=O)(=O)N4CCN(C)CC4)ccc3OCC)nc12  mean serum uric acid (human patients on drug, serum or plasma; dose not given, on:off matching 1:5; relative to: off-drug patients, 5.91 mg/dL): 6.97 mg/dL
